Measured values from different studies.
Lines come from different studies, so protocols differ. Converted amounts (≈) assume the structure as drawn.
Organism: Klebsiella pneumoniae

The MIC90 of `Cn1c(=O)ccc2ccc(F)c(CCNC[C@H]3CN(c4cnc5c(n4)NC(=O)CO5)C(=O)O3)c21` is reported as 2 µg/mL (≈ 4.27 µM).
`C[C@@H](O)[C@H]1C(=O)N2C(C(=O)O)=C(S[C@@H]3CN[C@H](C(=O)N(C)C)C3)[C@H](C)[C@H]12`: “reduction of bacterial load” 94% (ATCC 700603, mouse lung infection, lung; intraperitoneal, 10 mg/kg, 24 h).
For `CC[C@H](C)CCCCC(=O)N[C@@H](CCN)C(=O)N[C@H](C(=O)N[C@@H](CCN)C(=O)N[C@H]1CCNC(=O)[C@H]([C@@H](C)O)NC(=O)[C@H](CCN)NC(=O)[C@H](CCN)NC(=O)[C@H](CC(C)C)NC(=O)[C@@H](CC(C)C)NC(=O)[C@H](CCN)NC1=O)[C@@H](C)O`, “EtBr fluorescence increase” read greater than 2.5 fold (EtBr efflux; ATCC 43816 AcrAB expressing; concentration not given, together with: glucose, CCCP de-energised; baseline: untreated).
The survival rate of `C[C@H]1[C@H](NC(=O)/C(=N\OC(C)(C)C(=O)O)c2csc(N)n2)C(=O)N1S(=O)(=O)O` is reported as 100% (ESBL producing, ICR mice, systemic lethal infection; up to 60 mg/kg).
For `O=[N+]([O-])c1cc2cc3ccc4oc([N+](=O)[O-])cc4c3cc2o1`, the MIC90 was 2 µg/mL (≈ 6.71 µM) (REMA).
`C[C@@H](O)[C@H]1C(=O)N2C(C(=O)O)=C(S[C@@H]3CN[C@H](C(=O)Nc4cccc(C(=O)O)c4)C3)[C@H](C)[C@H]12` — result for “MIC fold reduction”: 2 fold (checkerboard; carbapenem-resistant; concentration not given, together with: anionic gold nanoparticle 8 µg/mL; baseline: MIC alone over combination).
The MIC90 of `COc1cc2ccc3oc([N+](=O)[O-])cc3c2cc1OC` is reported as greater than 32 µg/mL (REMA).
For `NCC[C@H](O)C(=O)N[C@@H]1C[C@H](N)[C@@H](O[C@H]2O[C@H](CN)[C@@H](O)[C@H](O)[C@H]2O)[C@H](O)[C@H]1O[C@H]1O[C@H](CO)[C@@H](O)[C@H](N)[C@H]1O`, the IC90 was 58.4 µg/mL (growth inhibition, checkerboard; compound alone).
`C[C@@H](O)[C@H]1C(=O)N2C(C(=O)O)=C(SCCN=CN)C[C@H]12`: “MIC fold reduction” 16 fold (checkerboard; carbapenem-resistant; concentration not given, together with: anionic gold nanoparticle 8 µg/mL; baseline: MIC alone over combination).
For `CC[C@H](C)[C@H](NC(=O)[C@H](CC(C)C)NC(=O)[C@H](CCCNC(=N)N)NC(=O)[C@H](CC(C)C)NC(=O)[C@@H](NC(=O)[C@@H](NC(=O)[C@H](CCCNC(=N)N)NC(=O)[C@@H](NC(=O)[C@@H](NC(=O)[C@H](CCCNC(=N)N)NC(=O)[C@H](CCCNC(=N)N)NC(=O)[C@H](CCCNC(=N)N)NC(=O)[C@H](CO)NC(=O)[C@@H](N)CCCNC(=N)N)[C@@H](C)CC)[C@@H](C)CC)[C@@H](C)CC)C(C)C)C(=O)N[C@@H](CCCNC(=N)N)C(=O)N[C@@H](CCCNC(=N)N)C(=O)N[C@@H](CO)C(=O)N[C@@H](C)C(=O)N[C@@H](CCCNC(=N)N)C(N)=O`, the MIC range was 4 to 8 µM (≈ 9.78 to 19.6 µg/mL).
The MIC90 of `O=[N+]([O-])c1cc2c(ccc3c2ccc2cc([N+](=O)[O-])oc23)o1` is reported as greater than 32 µg/mL (REMA).
The MBC of `CC[C@H](C)[C@H](NC(=O)[C@H](Cc1c[nH]c2ccccc12)NC(=O)[C@@H](NC(=O)[C@H](Cc1ccccc1)NC(=O)[C@@H]1CCCN1C(=O)[C@@H](NC(=O)[C@H](C)N)[C@@H](C)CC)[C@@H](C)CC)C(=O)N[C@@H](Cc1ccccc1)C(=O)N[C@@H](CCCNC(=N)N)C(=O)N[C@@H](CC(C)C)C(=O)N[C@@H](CC(C)C)C(=O)N[C@@H](CCCNC(=N)N)C(=O)N[C@@H](CCCCN)C(=O)NCC(N)=O` is reported as greater than 15 µM (ATCC 700603; 18 h, 37 °C).
`Nc1c([N+](=O)[O-])oc2ccc3ccccc3c12` gave an MIC90 of 16 µg/mL (≈ 70.1 µM) (REMA).
`CC[C@H](C)[C@H](NC(=O)[C@H](C)NC(=O)[C@H](CCCCN)NC(=O)[C@H](CC(C)C)NC(=O)[C@H](C)NC(=O)[C@@H](NC(=O)[C@H](Cc1c[nH]cn1)NC(=O)[C@H](CC(C)C)NC(=O)[C@@H](NC(=O)[C@@H](NC(=O)[C@H](CCCCN)NC(=O)[C@H](C)NC(=O)[C@H](C)NC(=O)[C@H](CO)NC(=O)[C@H](CCCCN)NC(=O)[C@H](Cc1ccccc1)NC(=O)[C@@H](NC(=O)[C@H](CCCCN)NC(=O)[C@H](CC(C)C)NC(=O)[C@H](Cc1ccccc1)NC(=O)[C@H](CO)NC(=O)[C@H](CCCCN)NC(=O)[C@H](Cc1c[nH]c2ccccc12)NC(=O)[C@H](CCCCN)NC(C)=O)[C@@H](C)O)[C@@H](C)O)C(C)C)[C@@H](C)O)C(=O)N[C@@H](CO)C(=O)N[C@@H](CO)C(N)=O` has an MBC50 of 16 µg/mL (≈ 5.45 µM) (ATCC 1706).
The MIC90 of `O=[N+]([O-])c1cc2c(ccc3cc(Br)ccc32)o1` is reported as greater than 32 µg/mL (REMA).
Under “zone of inhibition”, `O=C/C=C/c1ccccc1` is recorded as 7 mm (MTCC 109; 1000 µg/mL, 18 h).
`C[C@@H](O)[C@H]1C(=O)N2C(C(=O)O)=C(S[C@@H]3CN[C@H](C(=O)N(C)C)C3)[C@H](C)[C@H]12` — result for “bacterial burden, best”: 8 log10 CFU/thigh (NDM-producing, neutropenic BALB/c mouse, thigh infection, thigh; dose not given, 4 h).
`Cc1c([N+](=O)[O-])oc2ccc3ccccc3c12` gave an MIC90 of 0.25 µg/mL (≈ 1.1 µM) (REMA).
`CC[C@H](C)[C@H](NC(=O)[C@H](Cc1ccccc1)NC(=O)[C@@H](NC(=O)[C@H](Cc1c[nH]c2ccccc12)NC(=O)[C@@H]1CCCN1C(=O)[C@@H](NC(=O)[C@H](C)N)[C@@H](C)CC)[C@@H](C)CC)C(=O)N[C@@H](Cc1ccccc1)C(=O)N[C@@H](CCCNC(=N)N)C(=O)N[C@@H](CC(C)C)C(=O)N[C@@H](CC(C)C)C(=O)N[C@@H](CCCNC(=N)N)C(=O)N[C@@H](CCCCN)C(=O)NCC(N)=O` gave an MBC of 15 µM (≈ 25.9 µg/mL) (ATCC 700603; 18 h, 37 °C).
With `CCc1c([N+](=O)[O-])oc2ccc3ccccc3c12` the MIC90 was 0.5 µg/mL (≈ 2.07 µM) (REMA).
Under “MIC fold reduction”, `C[C@@H](O)[C@H]1C(=O)N2C(C(=O)O)=C([C@H]3CCCO3)S[C@H]12` is recorded as greater than 2 fold (checkerboard; carbapenem-resistant; concentration not given, together with: anionic gold nanoparticle 8 µg/mL; baseline: MIC alone over combination).
With `CC[C@H](C)[C@H](NC(=O)[C@H](Cc1c[nH]c2ccccc12)NC(=O)[C@@H](NC(=O)[C@H](Cc1c[nH]c2ccccc12)NC(=O)[C@@H]1CCCN1C(=O)[C@@H](NC(=O)[C@H](C)N)[C@@H](C)CC)[C@@H](C)CC)C(=O)N[C@@H](Cc1c[nH]c2ccccc12)C(=O)N[C@@H](CCCNC(=N)N)C(=O)N[C@@H](CC(C)C)C(=O)N[C@@H](CC(C)C)C(=O)N[C@@H](CCCNC(=N)N)C(=O)N[C@@H](CCCCN)C(=O)NCC(N)=O` the MBC was greater than 15 µM (ATCC 700603; 18 h, 37 °C).

For quick reference, copied from above:
The MBC of `CC[C@H](C)[C@H](NC(=O)[C@H](Cc1c[nH]c2ccccc12)NC(=O)[C@@H](NC(=O)[C@H](Cc1ccccc1)NC(=O)[C@@H]1CCCN1C(=O)[C@@H](NC(=O)[C@H](C)N)[C@@H](C)CC)[C@@H](C)CC)C(=O)N[C@@H](Cc1ccccc1)C(=O)N[C@@H](CCCNC(=N)N)C(=O)N[C@@H](CC(C)C)C(=O)N[C@@H](CC(C)C)C(=O)N[C@@H](CCCNC(=N)N)C(=O)N[C@@H](CCCCN)C(=O)NCC(N)=O` is reported as greater than 15 µM (ATCC 700603; 18 h, 37 °C).
`Nc1c([N+](=O)[O-])oc2ccc3ccccc3c12` gave an MIC90 of 16 µg/mL (≈ 70.1 µM) (REMA).
